Assay results from different studies.
Every numbered part comes from another study and shows a few of its results, in no order. Positions count from the first letter of the parent shown.

Block 1 — technique: RNA Bind-n-Seq; molecule type: RNA; medium: in vitro; tested at: not given; reference: input RNA pool; reading: higher = stronger binding; endpoint: bound/input enrichment
Target: RING finger protein unkempt homolog, zinc fingers 1-6, GST-SBP tag (UNK, Homo sapiens, UniProt Q9C0B0, residues 30-357)
Chain of UniProt Q9C0B0 (30-357, looked up): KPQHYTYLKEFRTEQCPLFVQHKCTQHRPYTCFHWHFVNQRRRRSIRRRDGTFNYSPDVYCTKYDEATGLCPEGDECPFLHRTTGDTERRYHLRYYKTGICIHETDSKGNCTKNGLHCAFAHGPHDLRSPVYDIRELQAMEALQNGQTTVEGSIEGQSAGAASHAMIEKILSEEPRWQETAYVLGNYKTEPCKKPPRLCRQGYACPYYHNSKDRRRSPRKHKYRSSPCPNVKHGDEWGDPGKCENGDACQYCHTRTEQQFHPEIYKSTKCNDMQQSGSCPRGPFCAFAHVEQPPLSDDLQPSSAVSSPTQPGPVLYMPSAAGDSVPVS
Notes: RNA with constant flanks, human and mouse sites, ends assumed
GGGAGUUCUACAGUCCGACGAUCUUUAUAUUUAACUAAAUGUAAGGUACGAAUUAUUACAUAUUAAACUUUUCUUCCCCUUCCUAGUUCUGAAGUAGAUAUAUAUAUAUAUAUAUCUACUGUCACAUUCCAUAUAUUUUGAAUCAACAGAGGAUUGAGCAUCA: 31.2 ratio
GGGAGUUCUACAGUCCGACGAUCGCUCUUGUGGAGGUACAUUUCCUAAGCCGGAACACUCAAGCUUUUUUCAGGGUGUUUGGCUCUUGCAGCAAAACAAUUGAGAUGCUAACAGGGAGGAUUACAGUGUUUACAGAACAACCUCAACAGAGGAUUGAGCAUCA: 0.222 ratio
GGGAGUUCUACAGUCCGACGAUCAAUGGGAAAACGGUAUAUGCACCAUCCCCAAAUUCAGAUGAUUUCAACCGUGAAUCUCCUAGUUAUCCAUCUCCUAAGCCACCAACCAGUAUGUUCGCUAGCACUUUCUUUAUGCAAGAUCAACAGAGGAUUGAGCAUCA: 2 ratio
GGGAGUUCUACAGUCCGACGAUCUCAUUGUCCUUUCUCCAGUUUUUGUUCCAGAAUAAAAGGAAAUAUUUUAAAAGCCACGUUAUAGGACCUAAAAAUCUGAUUUCCGUACCAGUUAAAUUGGUAGCAUCACUGUUACUGAUACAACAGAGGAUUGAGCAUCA: 0.24 ratio
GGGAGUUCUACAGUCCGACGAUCGAUUGCAUAGCUAAACAUCACAGAGCAUGAUAUUAAAUGGCUGCUAUUUAAAUAAAUAUGUGACCUUGUCCUAAAGCUAUAAUACUGGCCGGGCACAGUGGCUCACGCCUGUAAUCCCAGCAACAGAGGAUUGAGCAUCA: 0.398 ratio
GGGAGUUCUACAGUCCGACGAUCGGGAUUUUGGACCAGGGGGAGGGUGUCCUGAUCAUUUUCGAUGAACCCCCAGUAGAUAAAACUUAUGAAGCUGCUCUGGAAACUAUUCAGAACAUGAGUAAAGUAGUGGACUCCCUCUACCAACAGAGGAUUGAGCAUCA: 11 ratio

Block 2 — target: CCND1, cyclin fold, Cln2 fusion (human); technique: yeast growth competition, sequencing; medium: yeast; notes: strong parent motif; reference: not given; reading: higher = stronger binding; endpoint: normalised enrichment score
Parent: INSM1 docking peptide (human); PKAIRKLHFEDEV; partner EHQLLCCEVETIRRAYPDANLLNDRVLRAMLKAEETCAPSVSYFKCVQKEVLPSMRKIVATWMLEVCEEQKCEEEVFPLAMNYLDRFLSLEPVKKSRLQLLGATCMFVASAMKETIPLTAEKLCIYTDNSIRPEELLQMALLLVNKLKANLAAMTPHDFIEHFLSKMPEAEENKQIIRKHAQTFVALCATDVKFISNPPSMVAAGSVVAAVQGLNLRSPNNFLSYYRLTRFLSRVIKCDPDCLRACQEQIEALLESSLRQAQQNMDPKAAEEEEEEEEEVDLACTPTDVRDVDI
A3K: 0.872
E10T: 3.5
L7D: -0.179
H8C: 5.89
E10I: 1.36
D11L: 2.98

Block 3 — technique: protein binding microarray; molecule type: double-stranded DNA, one strand shown; medium: in vitro; tested at: not given; reference: not given; reading: higher = stronger binding; endpoint: E-score
Target: Histone acetyltransferase KAT6A, winged helix 1, GST fusion (KAT6A, Homo sapiens, UniProt Q92794, residues 1-85)
Notes: 8-mer, flanks averaged, mean of 2 arrays, mostly near background
Target sequence (chain): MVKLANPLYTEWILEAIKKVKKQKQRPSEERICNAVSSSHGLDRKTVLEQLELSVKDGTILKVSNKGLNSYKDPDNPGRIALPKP
CGGGCCCG: 0.438
CTTACGCA: 0.0543
ACGTTTTA: -0.117
ATTACATG: 0.0649
CCTGGGGC: -0.0597

Other studies, line by line
PhoQ, residues 284 288 289 292 302 303 SCKMEA — fold induction (PhoP, residues 12 14 15 18 19 NQAHL (Escherichia coli, UniProt P23836); Sort-seq, refers to: YFP reporter; E. coli; PhoQ-PhoP variant library, together with: 10 µM Mg2+; reference: high Mg2+ state, higher = stronger signaling): 19.3

Some of these lines once more (block 2):
E10T: 3.5
L7D: -0.179
